Measured values collected from several papers.
Each numbered part is a random draw from the data of one study; scales do not carry over between parts. Values joined by “and” are separate records of one study, mostly repeats; a detail may differ.
Chain of UniProt Q13164 (whole entry, looked up): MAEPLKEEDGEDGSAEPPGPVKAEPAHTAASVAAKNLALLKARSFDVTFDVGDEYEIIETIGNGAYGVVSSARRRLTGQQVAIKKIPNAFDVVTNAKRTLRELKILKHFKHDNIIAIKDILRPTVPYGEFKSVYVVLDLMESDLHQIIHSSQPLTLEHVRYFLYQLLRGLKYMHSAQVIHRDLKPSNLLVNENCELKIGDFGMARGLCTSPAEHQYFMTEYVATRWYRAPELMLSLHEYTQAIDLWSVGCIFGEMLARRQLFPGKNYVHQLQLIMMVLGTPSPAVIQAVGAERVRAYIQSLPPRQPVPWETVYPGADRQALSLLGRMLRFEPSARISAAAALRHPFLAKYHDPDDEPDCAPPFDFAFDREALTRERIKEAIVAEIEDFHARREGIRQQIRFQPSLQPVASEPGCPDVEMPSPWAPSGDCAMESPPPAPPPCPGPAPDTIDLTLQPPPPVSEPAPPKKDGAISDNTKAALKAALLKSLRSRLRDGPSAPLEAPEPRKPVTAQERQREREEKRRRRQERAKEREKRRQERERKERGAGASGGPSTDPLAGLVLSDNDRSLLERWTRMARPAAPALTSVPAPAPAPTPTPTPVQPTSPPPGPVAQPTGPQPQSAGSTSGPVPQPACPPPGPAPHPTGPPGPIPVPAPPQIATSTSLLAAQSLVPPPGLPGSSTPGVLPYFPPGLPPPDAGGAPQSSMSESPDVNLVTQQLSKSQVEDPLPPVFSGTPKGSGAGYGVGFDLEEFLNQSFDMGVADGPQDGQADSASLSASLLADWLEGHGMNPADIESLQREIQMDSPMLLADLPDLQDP
Chain of UniProt Q8IYT8 (whole entry, looked up): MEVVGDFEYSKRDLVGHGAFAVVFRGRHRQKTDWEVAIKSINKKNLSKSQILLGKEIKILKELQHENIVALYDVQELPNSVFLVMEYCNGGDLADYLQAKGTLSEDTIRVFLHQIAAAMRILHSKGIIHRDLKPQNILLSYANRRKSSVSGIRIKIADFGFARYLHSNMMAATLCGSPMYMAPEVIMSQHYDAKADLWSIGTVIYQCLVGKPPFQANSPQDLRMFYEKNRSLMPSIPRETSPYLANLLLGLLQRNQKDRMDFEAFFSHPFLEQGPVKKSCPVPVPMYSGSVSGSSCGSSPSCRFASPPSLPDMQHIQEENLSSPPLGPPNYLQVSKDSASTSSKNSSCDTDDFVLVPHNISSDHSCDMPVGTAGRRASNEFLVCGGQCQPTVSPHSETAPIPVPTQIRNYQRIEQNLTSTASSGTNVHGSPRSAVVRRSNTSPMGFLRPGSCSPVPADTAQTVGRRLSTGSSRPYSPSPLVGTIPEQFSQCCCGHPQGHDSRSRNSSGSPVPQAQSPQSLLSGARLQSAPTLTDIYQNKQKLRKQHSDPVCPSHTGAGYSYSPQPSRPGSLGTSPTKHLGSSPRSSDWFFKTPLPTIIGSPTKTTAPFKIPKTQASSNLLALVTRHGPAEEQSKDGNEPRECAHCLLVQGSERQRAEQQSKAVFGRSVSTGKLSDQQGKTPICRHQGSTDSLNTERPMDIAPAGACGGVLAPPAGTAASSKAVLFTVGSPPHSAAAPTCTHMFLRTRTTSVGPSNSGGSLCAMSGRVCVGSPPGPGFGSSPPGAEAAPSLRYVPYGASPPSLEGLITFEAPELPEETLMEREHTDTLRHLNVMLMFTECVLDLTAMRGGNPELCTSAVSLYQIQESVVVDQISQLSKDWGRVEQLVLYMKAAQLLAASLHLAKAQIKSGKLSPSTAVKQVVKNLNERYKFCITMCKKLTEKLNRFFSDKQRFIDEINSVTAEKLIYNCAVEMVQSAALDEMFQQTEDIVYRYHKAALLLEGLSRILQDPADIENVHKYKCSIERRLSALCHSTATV
Chain of UniProt P35626 (whole entry, looked up): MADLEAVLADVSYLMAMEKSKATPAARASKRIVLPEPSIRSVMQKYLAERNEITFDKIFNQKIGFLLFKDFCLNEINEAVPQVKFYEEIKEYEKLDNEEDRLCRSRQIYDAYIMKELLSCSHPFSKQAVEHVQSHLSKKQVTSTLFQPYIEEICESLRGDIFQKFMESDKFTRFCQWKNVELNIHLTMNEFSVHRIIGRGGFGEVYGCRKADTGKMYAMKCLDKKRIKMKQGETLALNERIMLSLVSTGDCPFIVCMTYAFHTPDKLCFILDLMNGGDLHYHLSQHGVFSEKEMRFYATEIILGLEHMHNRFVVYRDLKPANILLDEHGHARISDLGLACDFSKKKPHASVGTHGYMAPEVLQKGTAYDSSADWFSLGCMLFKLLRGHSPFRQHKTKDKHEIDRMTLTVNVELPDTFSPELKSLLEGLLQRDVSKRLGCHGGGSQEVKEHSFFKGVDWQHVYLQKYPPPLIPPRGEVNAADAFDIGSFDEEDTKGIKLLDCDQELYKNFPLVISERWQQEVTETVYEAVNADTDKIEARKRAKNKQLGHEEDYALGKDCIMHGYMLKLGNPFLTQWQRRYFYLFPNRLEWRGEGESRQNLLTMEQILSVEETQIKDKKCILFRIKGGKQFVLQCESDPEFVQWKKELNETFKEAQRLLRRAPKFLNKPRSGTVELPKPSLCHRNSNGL
Chain of UniProt Q02779 (whole entry, looked up): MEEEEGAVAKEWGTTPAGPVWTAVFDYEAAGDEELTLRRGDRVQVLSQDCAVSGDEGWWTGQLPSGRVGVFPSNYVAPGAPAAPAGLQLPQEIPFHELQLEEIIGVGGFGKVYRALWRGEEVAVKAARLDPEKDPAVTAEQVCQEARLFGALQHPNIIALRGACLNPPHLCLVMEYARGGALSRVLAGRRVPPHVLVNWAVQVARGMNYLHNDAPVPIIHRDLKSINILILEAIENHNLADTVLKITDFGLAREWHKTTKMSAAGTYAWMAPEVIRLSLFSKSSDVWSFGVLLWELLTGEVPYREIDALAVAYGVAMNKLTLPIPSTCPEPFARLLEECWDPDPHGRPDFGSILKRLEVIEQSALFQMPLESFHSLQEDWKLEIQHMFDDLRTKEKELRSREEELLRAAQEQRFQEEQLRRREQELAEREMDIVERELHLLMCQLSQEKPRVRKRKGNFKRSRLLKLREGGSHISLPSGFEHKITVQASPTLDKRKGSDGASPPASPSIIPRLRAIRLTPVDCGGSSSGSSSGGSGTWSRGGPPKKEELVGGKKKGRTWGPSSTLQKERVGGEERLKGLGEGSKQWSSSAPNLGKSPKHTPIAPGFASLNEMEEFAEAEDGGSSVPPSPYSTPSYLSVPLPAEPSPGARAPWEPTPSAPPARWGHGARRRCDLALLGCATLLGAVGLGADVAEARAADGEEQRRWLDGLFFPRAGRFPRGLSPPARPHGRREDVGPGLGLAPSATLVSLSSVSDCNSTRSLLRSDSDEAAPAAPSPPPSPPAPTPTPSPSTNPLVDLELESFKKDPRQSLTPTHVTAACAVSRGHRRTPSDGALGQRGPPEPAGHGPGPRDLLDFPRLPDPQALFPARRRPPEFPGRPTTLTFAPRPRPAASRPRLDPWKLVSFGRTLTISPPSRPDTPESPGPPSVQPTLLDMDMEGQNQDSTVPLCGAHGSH

Study 1
SMILES: Cc1cncc2cccc(S(=O)(=O)N3CCCN(C(=O)CN)C[C@@H]3C)c12
Observed: enzyme activity
Action: inhibitor
Tested at: 0.5 µM
Reference: control
Quantity: remaining activity
OXSR1 (Homo sapiens, UniProt O95747): 99.4%
IKBKE (Homo sapiens, UniProt Q14164): 95%
DAPK1 (Homo sapiens, UniProt P53355): 97.9%
STK39 (Homo sapiens, UniProt Q9UEW8): 95.3%
STK11 (Homo sapiens, UniProt Q15831): 86.5%
GRK3 (Homo sapiens, UniProt P35626): 95%
CAMKK2 (Homo sapiens, UniProt Q96RR4): 115%
STK10 (Homo sapiens, UniProt O94804): 42%

Study 2
Structure (SMILES): CC(=O)c1c(NS(C)(=O)=O)c2cc(-c3ccc(Cl)cc3)c(-c3ccc(Cl)cc3Cl)nc2n(C)c1=O
Observed: cell-free assay
Technique: competition with immobilised ligand
Tested at: 1 µM
Quantity: remaining binding
FGR (Homo sapiens, UniProt P09769): 100%
Tyrosine-protein kinase ABL1, phosphorylated (ABL1, Homo sapiens, UniProt P00519, H396P): 100%
MAP4K4 (Homo sapiens, UniProt O95819): 100%
PDGFRA (Homo sapiens, UniProt P16234): 88%
CDK16 (Homo sapiens, UniProt Q00536): 76%
MAP3K10 (Homo sapiens, UniProt Q02779): 99%
ULK2 (Homo sapiens, UniProt Q8IYT8): 97%
HUNK (Homo sapiens, UniProt P57058): 100%
EGFR (Homo sapiens, UniProt P00533): 100%
PAK6 (Homo sapiens, UniProt Q9NQU5): 100%
MAPK7 (Homo sapiens, UniProt Q13164): 92%
PIK3CA (Homo sapiens, UniProt P42336, M1043I): 100%
MAST1 (Homo sapiens, UniProt Q9Y2H9): 100%
GRK1 (Homo sapiens, UniProt Q15835): 84%
AXL (Homo sapiens, UniProt P30530): 100%
PIM3 (Homo sapiens, UniProt Q86V86): 100%
SLK (Homo sapiens, UniProt Q9H2G2): 100%

Study 3
Cell line: HaCaT
Tested at: 100 µM
Time: 36 h
Quantity: viability
COC(=O)C1=C(C)NC(C)=C(C(=O)O[C@@H]2CCCN(Cc3ccccc3)C2)[C@@H]1c1cccc([N+](=O)[O-])c1 (racemic): 22.5%
O=C(C[S+]([O-])Cc1ccco1)NC/C=C\COc1cc(CN2CCCCC2)ccn1 (stereo not drawn): 100%
COc1ccc(-c2cc(=O)c3c(O)cc(O[C@@H]4O[C@H](CO[C@@H]5O[C@@H](C)[C@H](O)[C@@H](O)[C@H]5O)[C@@H](O)[C@H](O)[C@H]4O)cc3o2)cc1O: 97.3%
COc1cc(S(=O)(=O)O)ccc1O: 94.1%
CCC(=O)NCC[C@@H]1CCc2ccc3c(c21)CCO3: 87%
COc1cc2c(Oc3ccc4[nH]c(C)cc4c3F)ncnc2cc1OCCCN1CCCC1: 6.65%

Study 4
SMILES: CC(C)n1cnc(-c2ccc(F)cc2)c1-c1ncc(C(=O)Nc2ccc(N3CCN(C)CC3)cc2)[nH]1
Technique: phase 2a trial
Species: patients with IPF
Quantity: share of patients with TEAE
60 mg once daily, skin and subcutaneous disorders, grade 4: 0%
30 mg once daily, skin and subcutaneous disorders, grade 3: 0%
dose not given, skin disorders, grade 3, pooled arms: 0%
dose not given, skin disorders, grade 5, pooled arms: 0%
30 mg once daily, skin and subcutaneous disorders, grade 2: 0%

Other studies, line by line
c1ccc2c(-c3nn4c(-c5ccncc5)nnc4s3)c[nH]c2c1  enzyme activity (L444P/L444P Gaucher fibroblasts; 4-MUG hydrolysis in lysate; 0.5 µM, 72 h; reference: vehicle): 185% and 186% and 163% and 237% and 157% and 178% and 269% and 148%
O=C(COc1ccc(Cl)cc1)NC1CCC(NC(=O)COc2ccc(Cl)cc2)CC1 (stereo not drawn)  enzyme activity (alpha-galactosidase (human); healthy dermal fibroblasts; concentration not given; reference: DMSO): 125% and 98.9% and 129% and 123% and 107% and 99.1% and 95.5%
Ic1ccc(Nc2nc(NCCN3CCOCC3)nc(N3CCOCC3)n2)cc1  enzyme activity (L444P/L444P Gaucher fibroblasts; 4-MUG hydrolysis in lysate; 0.5 µM, 72 h; reference: vehicle): 131% and 120% and 102% and 117% and 113% and 115%

A few entries again (study 2):
Tyrosine-protein kinase ABL1, phosphorylated (ABL1, Homo sapiens, UniProt P00519, H396P): 100%
MAP4K4 (Homo sapiens, UniProt O95819): 100%
PDGFRA (Homo sapiens, UniProt P16234): 88%
